Values quoted from earlier work, collected from citations in different studies.
Protocols differ between the studies behind these lines.

SMILES	target or system	assay	test system	conditions	how to read	endpoint	result
C[C@H]1CNC(=O)c2cnn3ccc(nc23)N[C@H](C)c2cc(F)ccc2O1	–	–	human plasma	prescribing information	–	unbound fraction	0.0467
C=C(CC)C(=O)c1ccc(OCC(=O)O)c(Cl)c1Cl	–	–	plasma	concentration not given	–	unbound Cmax	600 nM
C=CC(=O)N1C[C@H](Nc2ncnc3[nH]ccc23)CC[C@@H]1C	–	–	plasma	–	–	unbound fraction	0.86
O=C(O)CCc1nc(-c2ccccc2)c(-c2ccccc2)o1	–	–	plasma	concentration not given	–	unbound Cmax	5010 nM
Nc1cc(C(F)(F)F)c(-c2nc(N3CCOCC3)nc(N3CCOCC3)n2)cn1	PIM3 (Homo sapiens, UniProt Q86V86)	enzyme activity	–	10 µM	relative to: untreated	remaining activity	78%
CCCCC(=O)N(Cc1ccc(-c2ccccc2-c2nnn[nH]2)cc1)[C@H](C(=O)O)C(C)C	–	–	plasma	concentration not given	–	unbound Cmax	850 nM
CC(O)C(C)n1ncn(-c2ccc(N3CCN(c4ccc(OCC5COC(Cn6cncn6)(c6ccc(Cl)cc6Cl)O5)cc4)CC3)cc2)c1=O (stereo not drawn)	–	–	liver microsomes	–	–	unbound fraction in microsomes	1
CCn1cc(-c2cc(Cn3ccnc3)cc3c2CCN([C@H](c2cc(OC)ccn2)C2CC2)C3=O)c(C(F)(F)F)n1	–	–	mouse whole blood	1 µM	–	unbound fraction	0.2%
O=C(NC[C@H]1CN(c2ccc(N3CCOCC3=O)cc2)C(=O)O1)c1ccc(Cl)s1	–	–	plasma	at Cmax, small group	–	unbound fraction in plasma	~10%
C[C@H]1Oc2cc(cnc2N)-c2c(nn(C)c2C#N)CN(C)C(=O)c2ccc(F)cc21	–	–	human plasma	prescribing information	–	unbound fraction	0.345
C=C[C@@H]1C[C@]1(NC(=O)[C@@H]1C[C@@H]2CN1C(=O)[C@H](C(C)(C)C)NC(=O)O[C@@H]1C[C@H]1CCCCCc1nc3ccc(OC)cc3nc1O2)C(=O)NS(=O)(=O)C1CC1	–	–	plasma	–	–	unbound fraction	~1%
N[C@@H]1c2cccnc2[C@H](OC(=O)N2CCC(n3c(=O)[nH]c4ncccc43)CC2)CC[C@H]1c1cccc(F)c1F	–	–	plasma	–	–	unbound fraction	4%

For quick reference, copied from above:
SMILES	target or system	assay	test system	conditions	how to read	endpoint	result
CCn1cc(-c2cc(Cn3ccnc3)cc3c2CCN([C@H](c2cc(OC)ccn2)C2CC2)C3=O)c(C(F)(F)F)n1	–	–	mouse whole blood	1 µM	–	unbound fraction	0.2%
O=C(NC[C@H]1CN(c2ccc(N3CCOCC3=O)cc2)C(=O)O1)c1ccc(Cl)s1	–	–	plasma	at Cmax, small group	–	unbound fraction in plasma	~10%
